Measured values collected from several papers.
Each numbered part is a random draw from the data of one study; scales do not carry over between parts. ± marks the error that the study gave.

Series 1 — action: antagonist
Target: Beta-1 adrenergic receptor (ADRB1, Homo sapiens, UniProt P08588)
UniProt P08588, sequence (whole entry, looked up): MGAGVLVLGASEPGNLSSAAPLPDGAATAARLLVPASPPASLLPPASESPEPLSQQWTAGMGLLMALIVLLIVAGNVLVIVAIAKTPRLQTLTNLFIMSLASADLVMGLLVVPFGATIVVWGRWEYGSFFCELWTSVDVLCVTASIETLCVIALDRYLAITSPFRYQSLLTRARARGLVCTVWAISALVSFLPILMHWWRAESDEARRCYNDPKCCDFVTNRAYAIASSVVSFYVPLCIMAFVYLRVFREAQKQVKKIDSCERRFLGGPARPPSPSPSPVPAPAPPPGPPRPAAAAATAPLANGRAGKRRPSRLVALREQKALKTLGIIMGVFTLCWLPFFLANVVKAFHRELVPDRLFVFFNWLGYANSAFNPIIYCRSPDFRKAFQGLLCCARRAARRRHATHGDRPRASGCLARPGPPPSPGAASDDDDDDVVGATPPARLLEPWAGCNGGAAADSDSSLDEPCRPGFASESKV
SMILES | IC50 [µM]
c1ccc(-c2nc3c(c(N4CCNCC4)n2)CCC3)cc1 | ≥ 100
CNCc1ccc(CSCCN/C(=N/CC(O)c2ccc(O)cc2)N[S+](C)(=O)[O-])o1 (centres unmarked) | ≥ 100
COc1ccccc1OCC(O)CNC(C)C (centres unmarked) | ≥ 100
CCN(c1cc(-c2ccc(N3CCN(C)CC3)nc2)cc(C(=O)NCc2c3c(c(C)[nH]c2=O)CCCC3)c1C)C1CCOCC1 | ≥ 100
COc1ccccc1N1CCN(c2ncncc2-c2nc(-c3ccccc3)no2)CC1 | ≥ 100
Cc1ccc2c(CSc3nnnn3-c3ccc(Cl)cc3)cc(=O)oc2c1 | ≥ 100
CN(c1ccccc1)c1cc(=O)c2ccnc(NCCc3ccccn3)c2o1 | ≥ 100
Cc1ccc(-c2cc(C(=O)Nc3nnc(C)s3)c3ccccc3n2)s1 | ≥ 100
COc1ccccc1N1CCN([S+](=O)([O-])c2cc(C)c(C)cc2C)CC1 | ≥ 100
CCN(CC)c1ccc2c(c1)OC(=O)/C(=C/Nc1ccc(CC(=O)NNc3c4c(nc5ccccc35)CCCC4)cc1)C2=O | ≥ 100
COc1ccccc1N1CCN(C(=O)c2ccc3c(c2)OCCO3)CC1 | ≥ 100
CC(C)N(C)C(=O)c1cc(-c2cnc(C(C)(C)C)nc2)nc2cc(F)ccc12 | ≥ 100
COc1ccccc1-c1cc(-c2ccccc2)nc2c(C)noc12 | ≥ 100
O=c1oc2ccc(Br)cc2cc1-c1nc2c(s1)CCc1ccccc1-2 | ≥ 100

Series 2 — effect on: kinase activity
SMILES: COc1cc(C(=O)N2CCC(N3CCN(C)CC3)CC2)ccc1Nc1ncc2c(n1)N(C)c1ccccc1C(=O)N2C
target | concentration | remaining activity
S6K1 | 1 µM | 86 ± 2%
Aurora B | 1 µM | 64 ± 1%
PIM1 | 10 µM | 87 ± 1%
Aurora A | 10 µM | 5%
IRAK4 | 1 µM | 93 ± 9%
IKKb | 1 µM | 103 ± 5%
MAPKAP-K3 | 10 µM | 89 ± 5%
MNK2 | 10 µM | 22 ± 14%
JNK3 | 10 µM | 109 ± 7%
LCK | 1 µM | 106 ± 13%

Series 3 — cell line: HaCaT; concentration: 100 µM; time: 18 h
Compound | viability [%]
CNCCCC1c2ccccc2C=Cc2ccccc21 | 14.6
Clc1cccc(Cl)c1N=C1NCCN1 | 114
O=C1CC[C@@H](C(=O)N2CSC[C@H]2C(=O)O)N1 | 99.9
O=C(O)c1ccc(-n2nc(-c3ccccc3O)nc2-c2ccccc2O)cc1 | 73.3
C[C@@H]1C/C=C/C=C/C=C/C=C/[C@H](O[C@@H]2O[C@H](C)[C@@H](O)[C@H](N)[C@@H]2O)C[C@@H]2O[C@](O)(C[C@@H](O)C[C@H]3O[C@@H]3/C=C/C(=O)O1)C[C@H](O)[C@H]2C(=O)O | 96.8
CC1(C)O[C@@H]2C[C@H]3[C@@H]4C[C@H](F)C5=CC(=O)C=C[C@]5(C)[C@@]4(F)[C@@H](O)C[C@]3(C)[C@]2(C(=O)CO)O1 | 97.2
CCC[C@@H]1C[C@@H](C(=O)N[C@@H]([C@H]2O[C@H](SC)[C@H](OP(=O)(O)O)[C@@H](O)[C@H]2O)[C@H](C)Cl)N(C)C1 | 97.7
C=C[C@H]1[C@H](O[C@@H]2O[C@H](CO)[C@@H](O)[C@H](O)[C@H]2O)OC=C2C(=O)OCC[C@]21O | 114
CN(C)[C@@H]1C(O)=C(C(N)=O)C(=O)[C@@]2(O)C(O)=C3C(=O)c4c(O)ccc(Cl)c4[C@@](C)(O)[C@H]3C[C@@H]12 | 92.9
COc1ccc(C[C@@H]2c3cc(OC)c(OC)cc3CC[N@+]2(C)CCC(=O)OCCCCCOC(=O)CC[N@@+]2(C)CCc3cc(OC)c(OC)cc3[C@H]2Cc2ccc(OC)c(OC)c2)cc1OC | 70.1
CC(C)COc1ccc(CNC(=O)N(Cc2ccc(F)cc2)C2CCN(C)CC2)cc1 | 16.3
Nc1ccc(S(=O)(=O)Nc2ccccn2)cc1 | 66
CC[C@@]1(O)C(=O)OCc2c1cc1n(c2=O)Cc2cc3c(CN(C)C)c(O)ccc3nc2-1 | 75.2
COc1ccc(O)cc1 | 119
COc1ccc([C@@H]2CC(=O)c3c(O)cc(O[C@@H]4O[C@H](CO[C@@H]5O[C@@H](C)[C@H](O)[C@@H](O)[C@H]5O)[C@@H](O)[C@H](O)[C@H]4O)cc3O2)cc1OC | 99
CCN1CCN(C(=O)N[C@@H](C(=O)N[C@@H]2C(=O)N3[C@@H]2SC(C)(C)[C@@H]3C(=O)O)c2ccccc2)C(=O)C1=O | 94.8

Series 4 — cell line: mouse MPNST tumor cells; method: high-content immunofluorescence imaging; item: nuclear SOX9; concentration: 10 µM; time: 12 h; setting: mean of 2 replicates; relative to: DMSO control; direction: higher = more nuclear SOX9
Compound | nuclear SOX9 intensity
O=C(NO)c1ccc2[nH]c(=O)c(CCCc3ccccc3)nc2c1 | 116 % of DMSO
C=CC[C@@H]1/C=C(\C)C[C@H](C)C[C@H](OC)[C@H]2O[C@@](O)(C(=O)C(=O)N3CCCC[C@H]3C(=O)O[C@H](/C(C)=C/[C@@H]3CC[C@@H](O)[C@H](OC)C3)[C@H](C)[C@@H](O)CC1=O)[C@H](C)C[C@@H]2OC | 116 % of DMSO
NC(N)=NCCC[C@H](NC(=O)c1sccc1NS(=O)(=O)c1cccc2nsnc12)C(=O)O | 85.9 % of DMSO
O=c1[nH]cnc2c1ncn2[C@H]1CC[C@@H](CO)O1 | 101 % of DMSO
Fc1ccc(-c2c3cccc(C(F)(F)F)c3nn2Cc2ccc(F)cc2Cl)cc1 | 100 % of DMSO
CCCCOc1ccc(CC(=O)NO)cc1 | 106 % of DMSO
OC(CNCC(O)C1CCc2cc(F)ccc2O1)C1CCc2cc(F)ccc2O1 (centres unmarked) | 275 % of DMSO
COc1cc(OC)cc(C(=O)NNC(=O)Nc2cccc3ccccc23)c1 | 94.4 % of DMSO
CO/N=C(\C(=O)N[C@@H]1C(=O)N2C(C(=O)OC(C)OC(C)=O)=C(COC(N)=O)CS[C@H]12)c1ccco1 (some centres unmarked) | 100 % of DMSO
Cc1cc(-n2nc(Cc3cc(F)cc(C(F)(F)F)c3)nc2C)ccc1C(N)=O | 129 % of DMSO
COc1ccc(C(=O)Nc2c(Cl)cncc2Cl)cc1OC1CCCC1 | 104 % of DMSO
NC(N)=NCC1COC2(CCCCC2)O1 (centres unmarked) | 93.4 % of DMSO
COc1ccc(Cl)c(Nc2ncnc3cc(OCC4CCN(C)CC4)c(OC)cc23)c1 | 218 % of DMSO
Oc1ccc(/C=C/c2cc(O)cc(O)c2)cc1 | 101 % of DMSO
O=[N+]([O-])c1cc(Cl)ccc1S(=O)(=O)c1ccccc1 | 66.9 % of DMSO
CNC(=O)c1cc2c(cn1)[nH]c1ccccc12 | 103 % of DMSO

Excerpt of the above (series 3):
Compound | viability [%]
C[C@@H]1C/C=C/C=C/C=C/C=C/[C@H](O[C@@H]2O[C@H](C)[C@@H](O)[C@H](N)[C@@H]2O)C[C@@H]2O[C@](O)(C[C@@H](O)C[C@H]3O[C@@H]3/C=C/C(=O)O1)C[C@H](O)[C@H]2C(=O)O | 96.8
CC1(C)O[C@@H]2C[C@H]3[C@@H]4C[C@H](F)C5=CC(=O)C=C[C@]5(C)[C@@]4(F)[C@@H](O)C[C@]3(C)[C@]2(C(=O)CO)O1 | 97.2
CCC[C@@H]1C[C@@H](C(=O)N[C@@H]([C@H]2O[C@H](SC)[C@H](OP(=O)(O)O)[C@@H](O)[C@H]2O)[C@H](C)Cl)N(C)C1 | 97.7
C=C[C@H]1[C@H](O[C@@H]2O[C@H](CO)[C@@H](O)[C@H](O)[C@H]2O)OC=C2C(=O)OCC[C@]21O | 114
CN(C)[C@@H]1C(O)=C(C(N)=O)C(=O)[C@@]2(O)C(O)=C3C(=O)c4c(O)ccc(Cl)c4[C@@](C)(O)[C@H]3C[C@@H]12 | 92.9
COc1ccc(C[C@@H]2c3cc(OC)c(OC)cc3CC[N@+]2(C)CCC(=O)OCCCCCOC(=O)CC[N@@+]2(C)CCc3cc(OC)c(OC)cc3[C@H]2Cc2ccc(OC)c(OC)c2)cc1OC | 70.1
CC(C)COc1ccc(CNC(=O)N(Cc2ccc(F)cc2)C2CCN(C)CC2)cc1 | 16.3
